Published values from different studies.
A part holds a random share of what one study measured.

Study 1
Target: Histone acetyltransferase KAT6A, both winged helices, GST fusion (KAT6A, Homo sapiens, UniProt Q92794, residues 1-181)
Technique: protein binding microarray
Molecule type: double-stranded DNA, one strand shown
Medium: in vitro
Concentration: not given
Notes: 8-mer, flanks averaged, mean of 2 arrays, mostly near background
Reference: not given
Reading: higher = stronger binding
Residues (chain): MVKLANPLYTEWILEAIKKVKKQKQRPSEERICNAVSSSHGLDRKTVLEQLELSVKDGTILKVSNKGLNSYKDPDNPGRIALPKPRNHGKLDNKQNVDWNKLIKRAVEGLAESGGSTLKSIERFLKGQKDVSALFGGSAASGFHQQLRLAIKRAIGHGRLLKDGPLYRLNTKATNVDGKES
| Sequence | E-score |
| --- | --- |
| CCATGGAG | -0.145 |
| GTCCCGAC | 0.177 |
| CACAAGAC | -0.141 |
| AGACATTC | 0.018 |
| GTAGCTAC | 0.0743 |
| GGAGCGCC | 0.0978 |
| CACTGCTA | -0.119 |
| ACCGCACA | 0.109 |
| AGGCAATC | -0.192 |
| GACAGCGA | 0.0632 |
| CGCTAGGA | -0.0488 |
| ACCACGGA | 0.175 |
| ATGGTGGG | -0.207 |
| CAGGGGCC | 0.0516 |
| CATCCTAA | -0.017 |
| ACCAAGGC | 0.0522 |
| ACGACAGG | -0.0774 |
| GCCGAGAA | 0.236 |
| GAGGCCGC | 0.219 |
| GTACAGGA | -0.0962 |
| ACAGAGCC | 0.0188 |
| CGGTATAA | 0.111 |
| GAGATATC | -0.0504 |
| ACGGCCGA | 0.336 |
| AGGTCGCC | 0.0923 |

Study 2
Target: Interferon regulatory factor 7, full length, phosphomimetic (IRF7, Homo sapiens, UniProt Q92985, residues 1-503, S471D/S472D/S475D/S476D/S477D/S483D/S484D/S487D)
Chain of UniProt Q92985 (whole entry, unmodified, looked up): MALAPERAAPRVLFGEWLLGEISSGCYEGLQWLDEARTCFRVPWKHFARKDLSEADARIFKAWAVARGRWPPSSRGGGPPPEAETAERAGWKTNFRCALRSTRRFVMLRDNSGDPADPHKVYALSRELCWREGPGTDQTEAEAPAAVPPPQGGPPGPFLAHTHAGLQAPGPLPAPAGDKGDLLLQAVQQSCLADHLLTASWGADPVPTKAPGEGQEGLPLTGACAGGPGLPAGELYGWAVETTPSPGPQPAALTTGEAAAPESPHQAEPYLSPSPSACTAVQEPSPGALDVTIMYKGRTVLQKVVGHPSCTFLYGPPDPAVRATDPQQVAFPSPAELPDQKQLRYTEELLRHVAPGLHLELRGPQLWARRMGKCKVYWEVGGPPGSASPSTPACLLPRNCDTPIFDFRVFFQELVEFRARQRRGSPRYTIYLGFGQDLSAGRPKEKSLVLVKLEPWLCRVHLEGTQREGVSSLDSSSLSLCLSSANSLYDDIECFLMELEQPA
Technique: protein-binding microarray
Molecule type: double-stranded DNA, one strand shown
Medium: in vitro
Concentration: 2200 nM top
Notes: 60-bp whole probe
Added: salmon DNA 0.4 mg/ml
Reference: random background probes
Reading: higher = stronger binding
All sequences stand within: GCCTAGCAC … GTCTTGATTCGCTTGACGCTGCTG
| Sequence | fitted relative affinity [z-score] |
| --- | --- |
| TTAGATATCGGCTTTCGATTAGTGCTA | 2.78 |
| GACGATATCGGCACTGGAGACGTGCTA | -0.242 |
| TTAGATTCAAGTTTCGATTAGTGCTAG | 5.4 |
| GACGGTCTCGGTCTCGGGACGTGCTAG | -0.148 |
| TTTAGATTTTTTTTCCTAATGTGCTAG | 1.18 |
| TCATATAGGTTGTTTCTAACTGTGCTA | 0.716 |
| CTCCAACAAGGCTATCCCTCGTGCTAG | 0.456 |
| CAATATTAGAGTCTCAACCCGTGCTAG | 0.115 |
| TTAGAACTGGCGACTGGATTAGTGCTA | -0.672 |
| TCAGTTTCCTTCCTCTTACTGTGCTAG | 5.09 |
| GACGGTATCGGGTATTGGGACGTGCTA | -0.328 |
| GACGGACTGGACTTTCGGTACGTGCTA | 3.18 |
| CTAATTCTCTTTTCACTTTCGTGCTAG | 5.22 |
| TTAGATATCGGGACTGGCTTAGTGCTA | -0.496 |
| GACGGACTGGACACTGTGGACGTGCTA | -0.649 |
| TTAGGTATCGACACTCGGTTAGTGCTA | 0.502 |
| GACGATTCCGGTTTCGAGACGTGCTAG | 4.42 |
| TTAGATTTCAGTTCAGATTAGTGCTAG | 1.6 |
| TTAGGTTGCGGACTGGGTTAGTGCTAG | -0.311 |
| TCATGTTTTTCATTGTTACTGTGCTAG | 2.03 |
| GACGGTTTCGGGTATCCGGACGTGCTA | 6.29 |
| TTAGGACTGGCCTTTCGGTTAGTGCTA | 1.46 |
| TTCATTTTCCAAATGCCCTCGTGCTAG | 3.7 |
| GACGGACTACTTATCCTGACGTGCTAG | 0.372 |
| TTTTATGAAGGCCGGGGAGGGTGCTAG | -0.199 |

Study 3
Target: RNA binding protein fox-1 homolog 2, RRM domain, GST-SBP tag (RBFOX2, Homo sapiens, UniProt O43251-10, residues 100-194)
Technique: RNA Bind-n-Seq
Molecule type: RNA
Medium: in vitro
Concentration: 365 nM
Notes: natural RNA segment, single round, ends assumed
Reference: no-protein control
Reading: higher = stronger binding
Residues (chain): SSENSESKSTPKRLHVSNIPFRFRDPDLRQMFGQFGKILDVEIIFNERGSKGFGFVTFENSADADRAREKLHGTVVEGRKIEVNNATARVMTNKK
| Sequence | RBNS enrichment (R) |
| --- | --- |
| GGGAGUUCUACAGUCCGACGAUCGAACAGAACACUUCUAGGACUGGGGGUCUUUUAGCUCCAUAAGCAAGUGAGCAGAUGGGACAAGUUAGUCUUUUCUCCCUAGAAACAAAGGGGAUGCCCAGUGGUUUCCCUGGAAUUCUCGGGUGCCAA | 0.253 |
| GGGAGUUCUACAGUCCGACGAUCCAGACACUCUUUUAGACCAGCUGGACACUCAGCUCAAUGUCACUGAGAAUGAAUGUCAGAACUACAGACGCUGUUUGGAGAUCCUAGAGCAGAUGAAUGAGGAUGACAGUUGGAAUUCUCGGGUGCCAA | 0.635 |
| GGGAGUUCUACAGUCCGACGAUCAACCACAGAUGGGAAGACAGAGCUUACUCCAGCAUAUUUCUAAGCUGCAUCUCAGUGCCUGGGAGAGCCCUCUCGAAACAUCACUAACCUGUCUGUAUUGCCGAAUCUGGUGGAAUUCUCGGGUGCCAA | 0.776 |
| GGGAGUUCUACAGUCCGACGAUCAAUUAUGUGACAUUGAAACCUGCUGCUGCCGUGAUCUUGAGGAGAGUACAGAUGGGGAGGAAGGUUCCAGACUCUCCUCUCACUUUUUUUUUCCUCUCCUAUUCCAACACUGGAAUUCUCGGGUGCCAA | 0.349 |
| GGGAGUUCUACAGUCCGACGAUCAAGCCUUAUUUUUAAAAUCCCCCAUUCUUGCUCAGAUUAAAAAUUGCCAAAAUACCUUCUGAACUAAGUUGCGUUGUGCUGAGAACACCUAAGCACUAAACUCUCUUGAGUGGAAUUCUCGGGUGCCAA | 0.62 |
| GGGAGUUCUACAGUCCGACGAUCGCUGGGACAGAGGCUUGAGAGAACUAACGGCUCGGUGCCUUCUCCCUGGUCUCAGACCAUCGUCUCUGCACUGCGAAGGCAUUUGGUAGCCUCGCCACUGAGAUACUAACUGGAAUUCUCGGGUGCCAA | 0.337 |
| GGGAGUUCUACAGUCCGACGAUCUGGCCUCAUCUGGACCCUUCCUGUUAUUAAUAAAACGCUUCUGGAGGCCAGAUCUGUGCUCAAGCCAUAGUUCUGCUUAGAAAGGGAUGCCCCACCCUUACCGGACACUGUGGAAUUCUCGGGUGCCAA | 0.735 |
| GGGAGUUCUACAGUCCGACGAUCGGAAUUGCUUUCACUUCAAGACUUUCCUUCUUUUCACUAAAACUCUAGAAGGUGUUACAAGGGGGAGGGAAGGGGGGCAAAGUCCUUGAACAUUUUCUUUGGCUCGUGCCUGGAAUUCUCGGGUGCCAA | 0.646 |
| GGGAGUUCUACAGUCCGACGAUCAAUGACUUCUUCCUAGAGGACAACAAUGACCAGGACACUGGCAGCUCCUGAUCCUGACCUCUGCAGCCUCUUUAACUGCCCCUCCUAUGGCCCCUGCCCUUCUCUUUCUCUGGAAUUCUCGGGUGCCAA | 0.629 |
| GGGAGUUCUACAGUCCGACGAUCGCUCUGUGGAAAGGCAGUAUCUCUGGUGGGGACGCUGGUCCACAUCGGCCUCUGCUUGUACAUCCAUCCCACCCAGCAGUCGCCGAACAUCAUAGUCGGGAGCCAUUUCAUGGAAUUCUCGGGUGCCAA | 0.198 |
| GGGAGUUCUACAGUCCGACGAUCCUCCUUUUCCCACUGUGCCAGGGAAGGUAGGUUUCUCUGGCUGACUGAGUACUGUGAGUGAGGCAACACUGAUGCCAGCAUGGGUCUUACUUGACUGGGGAGUAGGCUGAUGGAAUUCUCGGGUGCCAA | 2.29 |
| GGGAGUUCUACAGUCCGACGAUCAGUAAACUACAGCUUUGAGUUGGAAAGAAGUCACGGGUUGUAAAACCAUUUGGAUUUUUUUAAAACAAAAGUAUUAAUAAUCUGGAAGACAGUGUUGCCCAGGUCAGGAGUGGAAUUCUCGGGUGCCAA | 0.362 |

Study 4
Target: Prothrombin, mature alpha-thrombin (F2, Homo sapiens, UniProt P00734)
Technique: aptamer microarray, sandwich
Molecule type: DNA with 2'F-ANA
Medium: in vitro
Concentration: 200 nM
Notes: whole 15-mer aptamer, many near background
Added: Cy3 exosite-II aptamer, 400 nM
Reading: higher = stronger binding
Sequence: GGTTGGTGTGGTTGG
| Modification | mean fluorescence intensity [a.u.] |
| --- | --- |
| 2'F-ANA at 1 2 3 5 6 7 9 10 | 45.5 |
| 2'F-ANA at 3 4 5 6 7 9 10 11 12 13 14 15 | 60 |
| 2'F-ANA at 1 3 4 5 7 9 11 | 52.8 |
| 2'F-ANA at 1 3 7 8 11 12 | 579 |
| 2'F-ANA at 1 2 4 6 8 9 10 11 12 14 15 | 64.7 |
| 2'F-ANA at 4 6 10 | 87.9 |
| 2'F-ANA at 1 4 5 6 7 8 10 11 14 | 46.1 |
| 2'F-ANA at 1 2 4 8 9 10 11 12 | 62.1 |
| 2'F-ANA at 5 8 9 10 12 14 | 44.4 |
| 2'F-ANA at 1 3 5 7 9 10 11 14 | 43.3 |
| 2'F-ANA at 2 8 11 13 | 413 |
| 2'F-ANA at 1 3 4 5 6 11 12 14 | 45.7 |
| 2'F-ANA at 1 2 3 6 7 10 12 13 14 15 | 59.1 |
| 2'F-ANA at 1 2 3 7 8 10 15 | 75.3 |
| 2'F-ANA at 2 3 4 5 6 7 9 11 12 13 | 86.9 |
| 2'F-ANA at 4 6 7 8 9 11 13 | 212 |
| 2'F-ANA at 3 4 6 7 10 11 12 14 | 176 |
| 2'F-ANA at 2 3 6 11 13 14 15 | 354 |
| 2'F-ANA at 1 3 4 8 9 10 12 13 14 | 52.6 |
| 2'F-ANA at 2 8 9 10 11 15 | 119 |
| 2'F-ANA at 2 6 10 11 12 13 14 | 81.3 |
| 2'F-ANA at 3 4 6 8 10 12 13 14 | 172 |
| 2'F-ANA at 2 3 5 7 11 13 14 15 | 48.9 |
| 2'F-ANA at 1 2 3 4 5 7 8 10 13 | 45.1 |

Repeated from above (study 4):
| Modification | mean fluorescence intensity [a.u.] |
| --- | --- |
| 2'F-ANA at 1 2 4 8 9 10 11 12 | 62.1 |
| 2'F-ANA at 5 8 9 10 12 14 | 44.4 |
| 2'F-ANA at 1 3 5 7 9 10 11 14 | 43.3 |
| 2'F-ANA at 2 8 11 13 | 413 |
| 2'F-ANA at 1 3 4 5 6 11 12 14 | 45.7 |
| 2'F-ANA at 1 2 3 6 7 10 12 13 14 15 | 59.1 |
| 2'F-ANA at 1 2 3 7 8 10 15 | 75.3 |
| 2'F-ANA at 2 3 4 5 6 7 9 11 12 13 | 86.9 |
| 2'F-ANA at 4 6 7 8 9 11 13 | 212 |
| 2'F-ANA at 3 4 6 7 10 11 12 14 | 176 |
| 2'F-ANA at 2 3 6 11 13 14 15 | 354 |
| 2'F-ANA at 1 3 4 8 9 10 12 13 14 | 52.6 |
| 2'F-ANA at 2 8 9 10 11 15 | 119 |
